Measurements pooled from the literature.
Protocols differ between the studies behind these lines. ± gives the spread as reported.

SMILES | test | system | conditions | scale | measurement | result
O=C(CN1CCN(c2cc3c(cc2F)c(=O)c(C(=O)O)cn3C2CC2)CC1)Nc1ccc(Cl)cc1 |  | female BALB/c mice | intravenous, 3.75 mg/kg |  | intercompartmental clearance | 0.0079 mL/min
CC[C@H](C)[C@H](NC(=O)[C@H](CC(=O)O)NC(=O)[C@H](CO)NC(=O)[C@H](CCC(N)=O)NC(=O)[C@H](C)NC(=O)[C@H](CC(=O)O)NC(=O)[C@H](CCC(=O)O)NC(=O)[C@H](Cc1c[nH]cn1)NC(=O)[C@H](Cc1ccc(O)cc1)NC(=O)[C@H](C)NC(=O)[C@H](CC(=O)O)NC(=O)[C@H](CCC(=O)O)NC(=O)[C@H](Cc1c[nH]cn1)NC(=O)[C@H](Cc1ccc(O)cc1)NC(=O)[C@H](C)NC(=O)[C@H](CC(=O)O)NC(=O)[C@H](CCC(=O)O)NC(=O)[C@H](Cc1c[nH]cn1)NC(=O)[C@H](Cc1ccc(O)cc1)NC(=O)[C@H](C)NC(=O)[C@H](CC(=O)O)NC(=O)[C@H](CCC(=O)O)NC(=O)[C@H](Cc1c[nH]cn1)NC(=O)[C@H](Cc1ccc(O)cc1)NC(=O)[C@H](C)NC(=O)[C@H](CC(=O)O)NC(=O)[C@H](CCC(=O)O)NC(=O)[C@H](Cc1c[nH]cn1)NC(=O)[C@@H](N)Cc1ccc(O)cc1)C(=O)N[C@H](C(=O)N[C@@H](C)C(=O)N[C@@H](Cc1c[nH]cn1)C(=O)N[C@@H](CC(C)C)C(=O)N[C@@H](CC(C)C)C(=O)O)C(C)C |  | mouse, SN model | dose not given |  | MCV | 48.4 ± 5.4 fL
CCN(Cc1ccccc1)C(=O)CCc1nc(CN2CCN(C(=O)Cc3ccc(OC)c(OC)c3)CC2)no1 | LC-MS | rat, DRG | intravenous, 1 mg/kg, 2.0 h |  | concentration | 77 ± 3 ng/g
CCCC[C@H]1C(=O)N(C)[C@@H](CCCC)C(=O)N[C@@H](CCCNC(=O)CN2CCN(CC(=O)O)CCN(CC(=O)O)CCN(CC(=O)O)CC2)C(=O)N[C@H](C(=O)NCC(N)=O)CSCC(=O)N[C@@H](Cc2ccc(O)cc2)C(=O)N(C)[C@@H](C)C(=O)N[C@@H](CC(N)=O)C(=O)N2CCC[C@H]2C(=O)N[C@@H](Cc2c[nH]cn2)C(=O)N[C@@H](CC(C)C)C(=O)N(C)CC(=O)N[C@@H](Cc2c[nH]c3ccccc23)C(=O)N[C@@H](CO)C(=O)N[C@@H](Cc2c[nH]c3ccccc23)C(=O)N1C [gallium-68 labelled] | static PET | NOD/SCID mice, CHO-hPD-L1 xenograft, CHO-hPD-L1 tumour | intravenous, 60 min post injection |  | tumour to muscle ratio | 9.41 ± 1.21
O=c1cc(-c2ccccc2)oc2c(Br)c(O)c(O)c(O)c12 |  | C57BL/6 mouse, plasma | po, 50 mg/kg |  | AUC extrapolated percentage | 4.6 ± 1.1%
COc1cc(NC(=O)C(=O)c2c(C)n(Cc3ccc(Cl)cc3)c3ccc(C)cc23)ccn1 |  | cynomolgus monkey, male, plasma | oral, 10 mg/kg, range of individual values |  | oral bioavailability | 11 to 18%
CC[C@H](C)C(=O)N1CCC(NC(=O)Nc2ccc(OC(F)(F)F)c(F)c2)CC1 |  | healthy volunteers | oral, 8 mg single dose |  | subjects with palpitations TEAE | 0%
CC[C@H](C)[C@H](NC(=O)[C@H](Cc1ccccc1)NC(=O)[C@H](CC(=O)O)NC(=O)[C@H](CN)NC(=O)[C@H](Cc1ccccc1)NC(=O)[C@H](Cc1ccccc1)NC(=O)[C@H](CCCCN)NC(=O)[C@H](CCN)NC(=O)[C@H](CC(C)C)NC(=O)[C@H](CCCNC(=N)N)NC(=O)[C@H](CCSC)NC(=O)[C@H](C)N)C(=O)N[C@@H](CC(C)C)C(=O)N[C@@H](CCC(N)=O)C(=O)N[C@@H](CCCNC(=N)N)C(=O)N[C@@H](CCCCN)C(=O)N[C@@H](CCCCN)C(=O)O | circular dichroism | 20% TFE in PBS | 200 µM, pH 7.4, 25 °C |  | helicity | 18.3%
CC(C)[C@H](NC(=O)CNC(=O)[C@H](CCC(N)=O)NC(=O)[C@H](C)N)C(=O)O |  | human | intravenous infusion, 90 mg/kg/h, 2 h infusion |  | subjects with moderate adverse events | 0%
c1ccc(C2(CCNC3CCC4(SCCS4)c4ccccc43)CCOC3(CCCC3)C2)nc1 (stereo not drawn) |  | rat | intravenous, 0.05 mg/kg |  | AUC(0-24 h) | 47.6 ng·h/mL
CC(=CCC(O)C(C)=Cc1csc(C)n1)CC=CC(C)C(O)C(C)C(=O)C(C)(C)C(O)CC(=O)O (stereo not drawn) |  | human, plasma | intravenous infusion, 42 mg/m2 KOS-1584, 3 h infusion, cycle 1 |  | Cmax | 30.1 ± 15.4 ng/mL
CCOP(=O)(OCC)OCCCCOC(=O)CC1=C(C)C(=Cc2ccc([S+](C)[O-])cc2)c2ccc(F)cc21 (stereo not drawn) |  | lung | i.p. and i.v. | baseline: inhalation | intact drug in lungs | < 12%
CC(C)C[C@H](NC(=O)C[C@H](O)[C@H](CC(C)C)NC(=O)[C@H](Cc1c[nH]cn1)NC(=O)CNC(=O)[C@@H](NC(=O)[C@H](C)NC(=O)[C@H](Cc1c[nH]c2ccccc12)NC(=O)[C@H](CCC(N)=O)NC(=O)[C@@H](Cc1ccccc1)NC(=O)CCNC(=O)CCNC(=O)CN1CCN(CC(=O)O)CCN(CC(=O)O)CCN(CC(=O)O)CC1)C(C)C)C(N)=O [lutetium-177 labelled] |  | mouse, PC-3 xenograft | intraperitoneal, 50 MBq/200 pmol, four doses, with or without protease inhibitor |  | toxicity | not toxic
CN[C@](C)(C[18F])C(=O)O |  | SCID mouse U87 xenograft, kidney | 60 min, post injection |  | tissue uptake | 4.2 ± 1.7 %ID/g
CC(C)COC1O[C@@H]2O[C@@]3(C)CC[C@H]4[C@H](C)CCC([C@H]1C)[C@@]24OO3 (stereo partly drawn) |  | Tg(fli1:EGFP) zebrafish embryos | 1.0 µg/mL, up to 48 hpf |  | dead embryos | 0 count
CSCC[C@H](NC(=O)CNC(=O)[C@H](CC(=O)O)NC(=O)[C@@H](NC(=O)[C@@H](NC(=O)[C@@H](NC(=O)CNC(=O)[C@H](CCC(N)=O)NC(=O)[C@H](CCSC)NC(=O)[C@H](CC(=O)O)NC(=O)[C@H](C)NC(=O)[C@H](C)NC(=O)[C@@H](NC(=O)[C@H](CO)NC(=O)[C@@H](N)CC(C)C)[C@@H](C)O)C(C)C)C(C)C)[C@@H](C)O)C(=O)N[C@@H](C)C(=O)N[C@@H](CO)C(=O)NCC(=O)N[C@@H](CC(C)C)C(=O)N[C@@H](CC(=O)O)C(=O)N[C@@H](CCCCN)C(=O)N[C@@H](CC(=O)O)C(=O)N[C@@H](Cc1ccc(O)cc1)C(=O)N[C@@H](CC(C)C)C(=O)N[C@@H](CCCCN)C(=O)N1CCC[C@H]1C(=O)N[C@@H](CC(=O)O)C(=O)N[C@@H](CC(=O)O)C(=O)O |  | human, serum | intravenous, 1.66 mg/kg, patients, infusion |  | clearance | 21 mL/min/kg
CC[C@H](C)[C@H](NC(=O)[C@H](CCCNC(=N)N)NC(=O)[C@H](CCC(N)=O)NC(=O)[C@@H](NC(=O)[C@@H](NC(=O)[C@H](CCCNC(=N)N)NC(=O)[C@@H](N)CCCCN)[C@@H](C)CC)C(C)C)C(=O)N[C@@H](CCCCN)C(=O)N[C@H]1CC(=O)N([C@@H](Cc2ccccc2)C(=O)N[C@@H](CC(C)C)C(=O)N[C@@H](CCCNC(=N)N)C(N)=O)C1=O | chemical stability, HPLC | human, serum | 50 µM, 15 min |  | compound remaining | ~5%
CN(C)C(CNC(=O)Nc1cc(C(F)(F)F)ccc1N1CCOCC1)c1ccncc1 (stereo not drawn) |  | mouse, serum | intraperitoneal, 240 mg/kg single dose |  | serum glucose | 236 mg/dL
CC[C@H](C)[C@H](NC(=O)[C@H](CCCNC(=N)N)NC(=O)[C@H](Cc1c[nH]c2ccccc12)NC(=O)[C@H](CCCNC(=N)N)NC(=O)[C@@H](NC(=O)[C@H](CC(C)C)NC(=O)[C@H](CC(C)C)NC(=O)[C@H](CCCNC(=N)N)NC(=O)[C@H](Cc1c[nH]c2ccccc12)NC(=O)[C@@H](N)CCCCN)[C@@H](C)CC)C(=O)N[C@@H](CCC(N)=O)C(=O)N[C@@H](CCCCN)C(N)=O |  | mouse | dose not given |  | toxicity | not toxic
Cc1ccc(/C=C/C(=O)O)cc1-c1cc2c(cc1C)C(C)(C)CCC2(C)C |  | Sprague-Dawley rat, male, plasma | oral, 100 mg/kg, 24 h, sesame oil vehicle |  | HDL level | 43 ± 9.5 mg/dL
CSCC[C@H](NC(=O)CNC(=O)[C@H](CC(=O)O)NC(=O)[C@@H](NC(=O)[C@@H](NC(=O)[C@@H](NC(=O)CNC(=O)[C@H](CCC(=O)O)NC(=O)[C@H](CCSC)NC(=O)[C@H](CC(=O)O)NC(=O)[C@H](C)NC(=O)[C@H](C)NC(=O)[C@@H](NC(=O)[C@H](CO)NC(=O)[C@@H](N)CC(C)C)[C@@H](C)O)C(C)C)C(C)C)[C@@H](C)O)C(=O)N[C@@H](C)C(=O)N[C@@H](CO)C(=O)NCC(=O)N[C@@H](CC(C)C)C(=O)N[C@@H](CC(=O)O)C(=O)N[C@@H](CCCCN)C(=O)N[C@@H](CC(=O)O)C(=O)N[C@@H](Cc1ccc(O)cc1)C(=O)N[C@@H](CC(C)C)C(=O)N[C@@H](CCCCN)C(=O)N1CCC[C@H]1C(=O)N[C@@H](CC(=O)O)C(=O)N[C@@H](CC(=O)O)C(=O)O |  | male CD-1 mice, serum | intravenous, 480 mg/kg |  | t1/2 beta | 13.8 min

A few entries again:
SMILES | test | system | conditions | scale | measurement | result
CCN(Cc1ccccc1)C(=O)CCc1nc(CN2CCN(C(=O)Cc3ccc(OC)c(OC)c3)CC2)no1 | LC-MS | rat, DRG | intravenous, 1 mg/kg, 2.0 h |  | concentration | 77 ± 3 ng/g
COc1cc(NC(=O)C(=O)c2c(C)n(Cc3ccc(Cl)cc3)c3ccc(C)cc23)ccn1 |  | cynomolgus monkey, male, plasma | oral, 10 mg/kg, range of individual values |  | oral bioavailability | 11 to 18%
